Assay results pooled from the literature.
Every numbered part comes from another study and shows a few of its results, in no order.

Block 1
Target: Sal-like protein 4, full length isoform B (SALL4, Homo sapiens, UniProt Q9UJQ4-2, residues 1-616)
Technique: universal PBM
Form: double-stranded DNA, one strand shown
Sample: in vitro
Concentration: not given
Notes: 8-mer, flanks averaged, mean of replicates
Direction: higher = stronger binding
Sequence	E-score
AGCACGAG	0.0377
ATATCGTG	0.114
AGAACCCC	-0.227
ATCGATTG	0.0911
ATCGCCGG	-0.28
ATAGCAAA	0.246
ACACCTGA	-0.0866
GCAGTAGC	-0.141
GAGCCTAA	-0.0435
CAGGTCGA	-0.179
GAAGAATC	-0.128

Block 2
Target: RNA binding protein fox-1 homolog 2, RRM domain, GST-SBP tag (RBFOX2, Homo sapiens, UniProt O43251-10, residues 100-194)
Technique: RNA Bind-n-Seq
Form: RNA
Sample: in vitro
Concentration: 365 nM
Notes: natural RNA segment, single round, ends assumed
Baseline: no-protein control
Direction: higher = stronger binding
Shared flanks, not repeated: GGGAGUUCUACAGUCCGACGAUC … UGGAAUUCUCGGGUGCCAA
Target sequence (chain): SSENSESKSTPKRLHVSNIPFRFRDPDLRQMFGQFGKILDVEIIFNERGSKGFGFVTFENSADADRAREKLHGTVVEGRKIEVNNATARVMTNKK
Sequence	RBNS enrichment (R)
UUUAAAGAUGCCCUAAGUGUUGAAGAAGAGUUUGCAAAUGCAACAAAAUAUUUAAUUACCGGUUGUUAAAACUGGUUUAGCACAAUUUAUAUUUUCCCUCUCUUGCCUUU	1.25
CUGCGGGCUCUCUCCCCGACACAUUUGUUAAAAUCAAACCUGAAUAAAACUACAAGUUUAAUAUGAAGCCCCCAACUCAGCUGCUUAUUUGAAUUAAAUGGGUGUAUUUG	0.766
UCCUUGCUUCAGAAUUGAAAUGGAAGUGGGGGUGUCCCUACUCUGUAGAAUCUGGGACUGGGCAAAUGUUUGUGUGGCCUCCUUAAACUAGCUGUUAUGUUAUGAUUUUA	1.55
AUUGAGUCCCCACGGCAUCUCUGGGAGGCAGGUGGUGAGCUCUUCACACAUCUUGAGCGAGAAGGCAUCUUCCUGGAAGACACAGCCUGCUUCUACCUGGCAGAGAUCAC	0.307
CUUGUUUCAGAUCAUAUUGAUCUCUUUCCUUUUGUCUCUCACCGUAUGGUAUGACUUGAAUCAGUUUUGAUUCUAUGUGUAAGUUCUCAUCGUUUGGAACCUGGUAUUUC	0.422
GCUUUAUGUGGCCCUGGGUUCAAACACAGCCCUUCAUAUGUAUAUAGCCAAACACUCUACAACUGAGCUACAUCCUCCAGCCUAGGCUGUAAAUGUUUUUUGGAGCUAGA	0.312
GUUGUUUCUAUGCCUUCUGACCCAGUUUCCCAGUUUAUAACUUUAUGACAAUGAGUUUCUCAAGCCCAAGGCCUUAUCUUCACCCCACAAACAAUAAAGCAAAGUAAAGA	0.459
CAGAAGAUGGGCUGCCUGUGGUCAGGACAGGGCAUACCAGUCUGGACUCCACCUUCCCAGACACCUACUUUAAGGACCUGUGGAAACUGGGUGAUCCAAUUAUAGGGCUG	0.376
UGGUACAAGAUGAAGGACAACAACUGUCUCCAUGGGCCACGUGCCCUAGAAGGACUCUCCCCAACUGUCAAAGCUAAUGCUUUGAGCACUUAGCAAACCAGCAUAAGAGA	0.331
ACUCAGCCCCCUGGUCUAAGCUGGACUUACCUCUGUGGAUUCUGAAAUUAAAGAAGUGAGUUGCUAAGGAAGGCCCUGACUCCUAUAGAAGGGAGGUCCAUGUGGGCCCA	1.03
CCCAGUUGAUAACAGUGUUUGAUUAAAUUUCCACUCAAGCCAAACAUGGUUACUAAGAAGAGAAAAACCUGAUGUUUGCAUAAUAUUUUUUUUCCCCUCGAGAUGGAGUC	0.978
UGGCCUCGCCGUCUCUUUCCUCCCUCCACACACCCACUUAUUUCCUUAACCUUCUUUCCCAAUGGAGCUUGGGGGACUAUUUAUAGAUUUCAUUUUUCUCACUGAGCCAG	0.36

Block 3
Target: Fragile X messenger ribonucleoprotein 1, C-terminal low-complexity region (Fmr1, Mus musculus, UniProt P35922)
Technique: RNA Bind-n-Seq
Form: RNA
Sample: in vitro
Concentration: 200 nM
Notes: whole 134-nt RNA, ends assumed
Added: 150 mM KCl
Baseline: input library
Direction: higher = stronger binding
Shared flanks, not repeated: GGGAGUUCUACAGUCCGACGAUC … UGGAAUUCUCGGGUGUCAAGG
Sequence	log2 enrichment
CACAGACAACACGCACCCACACAGACACAGAGGGAAGGGGUUGGGAUGGGGACAGGGUGCGCAGCAGGGCGGGGUAGGACCCCAGCCCCU	1.23
AAGUCCUGUGCUACACAUCGUAUGUACCGAAUCGGGGUUUGGGGUUUGGGGUUUGGGAAAGUAUUAUGUUACGCCGUUCGGAUCUGCACU	0.693
UAACUUUAGAGGAGGAUCUGAUGGAUAUGGCAGUGGACGUGGAUUUGGGGAUGGCUAUAGUGGGUAUGGAGGAGGACCUGGAGGUGGCAA	0.343
GCAGGAAGUAAAAACAAAAAGAAAUGCUUCGGAUAGUGGCAGGGGUGGGGGUUGCUAAGGAAAGGGUGGGAUGGGAGUGGGUAAAGAGUU	0.559
UGGCCCUGGUGGCAUGCGGGGAGGAAGAGGUGGCCUCAUGGAUCGUGGUGGUCCCGGUGGAAUGUUCACAGGUGGCCGUGGUGGAGACAG	-0.0661
CUGUGCUACACAUCGUAUGUACCGAAUCGGGCCCCCCCGGGGCCCCCCCGGCCCCCCCGGGAAAGUAUUAUGUUACGCCGUUCGGAUCUG	-1.11
UACCAAUUGGCCUUUAUUGACUGUAUCCAAAGGAUUUUUUGAAGGCACCAUUGCCAGCAAAGGUAAGUACCUAUUUCUCCCAUAGCACUU	-0.602
CAAGUCCUGUGCUACACAUCGUAUGUACCGAAUCGGGGAAAGGGGAGGGGAGGGGAAAGUAUUAUGUUACGCCGUUCGGAUCUGCACUUC	1.11
CACAGACAACACGCACCUACACAGACACAGAGGGAAGGGGUUGGGAUGGGGACAGGGUGCACAGCAGGGCGGGGUAGGACCCCAGCCCCU	1.37
CUGUGCUACACAUCGUAUGUACCGAAUCGGGGAAAAAAAGGAAAAAAAGGGGAAAAAAAGGGAAAGUAUUAUGUUACGCCGUUCGGAUCU	-0.281
UCCUCAAGUCCUGUGCUACACAUCGUAUGUACCGAAUCGGGAGGGAGGAGGAAAGUAUUAUGUUACGCCGUUCGGAUCUGCACUUCCAGC	-0.31
UCCUCAAGUCCUGUGCUACACAUCGUAUGUACCGAAUCGGAGGAAAGGAGGAAAGUAUUAUGUUACGCCGUUCGGAUCUGCACUUCCAGC	-0.563
UCCUGUGCUACACAUCGUAUGUACCGAAUCGGGAAAAAGGGAAAAAGGGAAAAAAAGGGAAAGUAUUAUGUUACGCCGUUCGGAUCUGCA	-0.201
GCAGGAAGUAAAAACAAAUGGAAAUGCAAAGGAUAGUGGCAGGGGUGGGGGUUGCUAAGGAAAGGGUGGGAUGGGAGUGGGUAAAGAGUU	0.205

Further values, each from its own experiment
Substance	target	test	system	conditions	how to read	endpoint	result
PhoQ, residues 284 288 289 292 302 303 TLASMF	PhoP, residues 12 14 15 18 19 QWHVF (Escherichia coli, UniProt P23836)	Sort-seq, refers to: YFP reporter	E. coli	PhoQ-PhoP variant library, added: 10 µM Mg2+	baseline: high Mg2+ state, higher = stronger signaling	fold induction	9.82

A few entries again (block 2):
Sequence	RBNS enrichment (R)
ACUCAGCCCCCUGGUCUAAGCUGGACUUACCUCUGUGGAUUCUGAAAUUAAAGAAGUGAGUUGCUAAGGAAGGCCCUGACUCCUAUAGAAGGGAGGUCCAUGUGGGCCCA	1.03
GCUUUAUGUGGCCCUGGGUUCAAACACAGCCCUUCAUAUGUAUAUAGCCAAACACUCUACAACUGAGCUACAUCCUCCAGCCUAGGCUGUAAAUGUUUUUUGGAGCUAGA	0.312
